# Results pooled from the literature.
# Every numbered part comes from another study and shows a few of its results, in no order.

# Block 1 — method: RNA Bind-n-Seq; molecule type: RNA; matrix: in vitro; concentration: 365 nM; relative to: no-protein control; direction: higher = stronger binding
# Target: RNA binding protein fox-1 homolog 2, RRM domain, GST-SBP tag (RBFOX2, Homo sapiens, UniProt O43251-10, residues 100-194)
# Setting: natural RNA segment, single round, ends assumed
# Target sequence (chain): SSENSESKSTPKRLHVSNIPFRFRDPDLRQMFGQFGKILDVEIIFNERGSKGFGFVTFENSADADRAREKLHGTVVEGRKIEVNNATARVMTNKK
Sequence,RBNS enrichment (R)
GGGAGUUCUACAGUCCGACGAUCCAGUAAUGGCCUGUGUUGGUAACAAUAUUAUCUAGUUCAAUGCCAUGCAGUAGCAUUGUAUAGCAACUAGUGCAUUUCAUACUGUAUUAAAUAUGGCACUGCUUCUAAGCUGGAAUUCUCGGGUGCCAA,0.235
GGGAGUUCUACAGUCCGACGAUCAACUGUCUACACGUGCACAUAGGCAGACUUUCUCAUAGAAUGUUCUUGAAAGGUGAUUGGCAAAGUCAUGCAGGCCCGCCUUAAAGCGCUGAUUAGAACAGUCCAACACAUGGAAUUCUCGGGUGCCAA,1.15
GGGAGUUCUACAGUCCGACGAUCUUUGCAAUGUUUAAUUAAGUGCCCAAAGAGCACAAACAUUUUUCAACAAAUAUCUUGUGUUGUCCUUUUGUCUUCUCUGUCUCAGACUUUUGUACAUCUGGCUUAUUUUAUGGAAUUCUCGGGUGCCAA,0.343
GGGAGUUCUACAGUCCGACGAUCUAUCCUAUGGUGAUGCUGUUUCUCGUUGCUAAUGGCAUUAGUGCCCCUGUAUCCUAGUGAUAACUCCAGGUCUGUGAACCAUUCAAACAGCAUUCAUUUUGAGAAAAGCAUGGAAUUCUCGGGUGCCAA,9.32
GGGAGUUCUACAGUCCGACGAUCAUUUGAUACUUUUAAUUUACACUUAGUAAAUUAAAAGUUGUUUAAUUUACUUGGCAUUUUAGGACAUGUACAUGAAACAGUGAAAAUGAGAUCCACCAACAUCUUUUAUUUGGAAUUCUCGGGUGCCAA,0.553
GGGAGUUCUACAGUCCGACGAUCAGGCGUGUUGCUGUGUAUCCCGGGCAUCCAUGGGUUCCAACUGCCACUGCCCCAGUCUUGGCCAGAGAUACCCCUCCUGCCUGACUGGAAGCUGCACAUCUGCCCACUGAUGGAAUUCUCGGGUGCCAA,0.252
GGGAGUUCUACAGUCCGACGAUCCAAACCCCAUACUCUUAGAAUUCAUUAUAUUAUGGUGAUAUCCGAACCUAGUGAAUGGUAUGCUUGGGUGUUUUCCAUUGAGAGUGGAUGGACCUCUUUAUAAAGUUGGUUGGAAUUCUCGGGUGCCAA,0.534
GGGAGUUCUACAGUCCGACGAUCCCAAGCAAGCCAGUGAGCAGCCCGGCCAGACCCUGCUGGACUGAGAGACCCAGCCGCUGACAGUCCCUGGGGCUUGCCUUCUUUGCCAAGCCAAUGGGAAACCAAAAGGAUGGAAUUCUCGGGUGCCAA,0.433
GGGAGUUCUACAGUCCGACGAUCAGGGUAUCUGUUUACCUUUAAAAUGAUAAGUCUCACUCAAGAUUUUUUAUGUAUGUAUAAAUAUUUUGGUGUGCUACAAAAGCCUUUGCAAAUUAUCAGUAGUAGUUUUUUGGAAUUCUCGGGUGCCAA,0.625
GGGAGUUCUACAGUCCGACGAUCUGCGGAACCAACACACCCUGCUGCCAGCUCCUCCAGCCACAGGCAUGGGACACUAAGCCGGGUCAUGGAGCUCAAGGGACUCUGUGAGAGAUGGGACAGGUCCUCCAGGAUGGAAUUCUCGGGUGCCAA,0.273
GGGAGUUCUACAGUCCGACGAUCUGCAACACAUUUGUCACCAGGCUUUGAAGGUGACAGCCUGACAAUGUGUUGGAGACACUUCUGAAGGGCAAGUGAACAGACAUACUGUGAAGUGGCUCAACAGGAGGAGCUGGAAUUCUCGGGUGCCAA,3.55
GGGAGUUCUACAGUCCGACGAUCAAGCUGCAGCACCUUUAUGUACAGAACAAUGUCACAGUGUGUGUGUGUGUGUGUGUGUGAGCGAGCAUGUGCUGUCUGCAUAUGGAAAUAACUACAGCACAGGCUACCUUUGGAAUUCUCGGGUGCCAA,1.08

# Block 2 — method: RNA Bind-n-Seq; molecule type: RNA; matrix: in vitro; concentration: not given; relative to: input RNA pool; direction: higher = stronger binding
# Target: RING finger protein unkempt homolog, zinc fingers 1-6, GST-SBP tag (UNK, Homo sapiens, UniProt Q9C0B0, residues 30-357)
# Setting: RNA with constant flanks, human-mouse chimeric sites, ends assumed
# Construct (chain): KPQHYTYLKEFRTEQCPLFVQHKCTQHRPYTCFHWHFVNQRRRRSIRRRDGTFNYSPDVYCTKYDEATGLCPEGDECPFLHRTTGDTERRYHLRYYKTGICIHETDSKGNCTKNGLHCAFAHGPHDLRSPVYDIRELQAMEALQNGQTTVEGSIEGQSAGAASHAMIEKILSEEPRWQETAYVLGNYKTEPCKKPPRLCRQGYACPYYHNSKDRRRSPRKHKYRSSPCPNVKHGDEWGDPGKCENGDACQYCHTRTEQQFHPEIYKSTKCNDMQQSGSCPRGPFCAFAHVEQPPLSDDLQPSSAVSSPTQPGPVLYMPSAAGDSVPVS
Sequence,bound/input enrichment [ratio]
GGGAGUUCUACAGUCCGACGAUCUCAUUUUGCUCGGGUUAUUCUUUCCUUUAGGAAAAGCCUAAAGAUUAGGUUGUAAGAAAAACAGAAGCCAUGUUUCGAAGACCUGUAUUACAGGUAUUUCGUCAGUUUGUAAGACAUGAGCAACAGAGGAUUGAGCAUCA,0.604
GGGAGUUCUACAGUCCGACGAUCUGGGCACUCUAUCAGAUAUAUUAAUUUUUAAAUGUAGAUGUAAUUUUAAAAAUGAAUGGCUACUUUACACGUUUAACUAGGGUUUUACUAUAUAUGUGUACAUAUGUAUAUAUAUAUAUACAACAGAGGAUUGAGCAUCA,18.8
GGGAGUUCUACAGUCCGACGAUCCGCCUGGAUGAGGCGGGUGUCACAGAUGAAGUGCUGGAUUCUGCCAUGCAAGCCUUCCUUCUGGAGGUCAUUGUUAAACAUGGGGAGCCGGCACCUUAUUUAUGUAACAAAGAUCCGUUUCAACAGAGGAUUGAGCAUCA,0.0743
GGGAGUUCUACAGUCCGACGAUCCUGUGUGGCUUACUAAAAUGGCUUGUAAAGAAGUUUUCCAAGUUGUAAACCCAUGCUGUUAUUAUAGUUGCUGCAAAAUGUUCUUCCUGAUAUUGAUUUUAUUUGUUAACUGAAGGUCUCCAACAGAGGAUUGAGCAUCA,0.528
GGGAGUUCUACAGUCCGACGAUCUAAGUCCAUUUGUAAGCCUUCGCUCAUAAAGUUUUAAAUUCAAGAAAAAUAGUGUUUGUUUCCUGAUUAUUGUAUCCAAUACUUUGCCUAGUAUGUAACUCACUCUUACUGAUAAUAAAACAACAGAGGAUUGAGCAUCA,6.06
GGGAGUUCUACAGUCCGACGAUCUCGGAUGCUGUGCUGGGUCACUUUUCAUAUCCAGAUCCUUCCCAGUGGACAGAUGAAGAAUUAGGUAUCCCUCCUGAUGACGAGGACUGACACUGUAAACUCUCUGGACGAGUAGGAGCACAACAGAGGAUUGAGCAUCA,0.736
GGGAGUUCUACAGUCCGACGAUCAAAUUUCCCCUCCUGAGACCUCCUCCGAAGUUGGAGUCUCUUACAGAUGCCUCAUCCCCUGUUAGCGUUUUAGUUUGGACCACCCAGCCUUGGACAAUUCCCGCCAACCAGGCAAUUUGCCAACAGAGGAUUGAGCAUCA,1.18
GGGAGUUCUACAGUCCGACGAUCCAACCUCAGAGCCCAGACUUCCUGGACAUUACCAACCCUAAAGCGGUAUUAGAAAAUGCAUUGAGAAACUUCGCCUGUCUGACGACUGGAGAUGUGAUUGCUAUCAACUACAAUGAGAAGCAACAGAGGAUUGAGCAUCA,0.483

# Block 3 — method: RNAcompete; molecule type: RNA; matrix: in vitro; concentration: 20 nM; setting: 7-mer, probes averaged, single round; relative to: mean of 7-mers; direction: higher = stronger binding
# Target: PABPC1L2, full length, GST fusion (mouse, UniProt A0ABA7IW68)
# Target sequence (chain): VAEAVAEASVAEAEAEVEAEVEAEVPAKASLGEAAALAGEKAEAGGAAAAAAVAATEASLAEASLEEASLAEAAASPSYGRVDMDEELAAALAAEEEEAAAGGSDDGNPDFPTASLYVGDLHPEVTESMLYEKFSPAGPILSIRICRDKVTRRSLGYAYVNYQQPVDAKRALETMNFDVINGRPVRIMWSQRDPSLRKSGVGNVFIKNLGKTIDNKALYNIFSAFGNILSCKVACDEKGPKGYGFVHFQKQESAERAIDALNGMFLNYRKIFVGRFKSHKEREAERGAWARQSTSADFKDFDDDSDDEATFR
Sequence,7-mer Z-score
GGCUACC,-0.0428
CGGGCAG,0.416
CAUAAUA,-0.106
CAGAUAG,0.075
CGCUAGU,-0.364
UACGGCA,0.0497
CUGUGUA,-0.15
AUAAGCG,0.0732
AAUAUGU,0.423
GAAUGGA,0.113
ACUUCUU,-0.22
AUUUCAG,-0.257
UUGCUUU,-0.289
UUCCUAU,-0.273
GUGCAGU,-0.164
AGUCCGG,-0.18
GCAGUUA,-0.0138
GGACUCG,-0.0409
GGAACGG,0.332
AAUGCAU,0.126

# Block 4 — method: protein binding microarray; molecule type: double-stranded DNA, one strand shown; matrix: in vitro; concentration: not given; relative to: not given; direction: higher = stronger binding
# Target: Histone acetyltransferase KAT6A, both winged helices, GST fusion (KAT6A, Homo sapiens, UniProt Q92794, residues 1-181)
# Setting: 8-mer, flanks averaged, mean of 2 arrays, mostly near background
# Residues (chain): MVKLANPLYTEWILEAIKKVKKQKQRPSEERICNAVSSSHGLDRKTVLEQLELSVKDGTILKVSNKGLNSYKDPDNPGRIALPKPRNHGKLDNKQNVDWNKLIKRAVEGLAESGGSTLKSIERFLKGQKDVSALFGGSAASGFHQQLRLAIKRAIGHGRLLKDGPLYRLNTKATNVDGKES
Sequence,E-score
GCGCGTAA,0.348
ACTGTAGA,-0.207
TTAAATAA,0.0206
GCATTATA,-0.0258
AGGGGACC,-0.0702
ATGTGCTC,-0.149
CTGGGAGA,-0.168
AGTACGAA,-0.0502
AAATACTG,-0.185
TGCCGCCA,0.242
CTTGTACA,-0.0488
TGAGATAA,0.0381
CAGTGTAC,0.00404
AAAAATTG,-0.109
AAGGACCT,0.0182
GGCCCCGA,0.113
TCCGTCCA,0.0778
GGCGAAGA,0.0683

# Block 5 — method: protein-binding microarray; molecule type: double-stranded DNA, one strand shown; matrix: in vitro; concentration: 2540 nM top; setting: 60-bp whole probe; together with: salmon DNA 0.4 mg/ml; relative to: random background probes; direction: higher = stronger binding; constant ends, left off below: GCCTAGCAC … GTCTTGATTCGCTTGACGCTGCTG
# Target: Interferon regulatory factor 3, full length, phosphomimetic (IRF3, Homo sapiens, UniProt Q14653, residues 1-427, S386D/S396D/S398D/S402D/T404D/S405D)
# UniProt Q14653, sequence (whole entry, unmodified, looked up): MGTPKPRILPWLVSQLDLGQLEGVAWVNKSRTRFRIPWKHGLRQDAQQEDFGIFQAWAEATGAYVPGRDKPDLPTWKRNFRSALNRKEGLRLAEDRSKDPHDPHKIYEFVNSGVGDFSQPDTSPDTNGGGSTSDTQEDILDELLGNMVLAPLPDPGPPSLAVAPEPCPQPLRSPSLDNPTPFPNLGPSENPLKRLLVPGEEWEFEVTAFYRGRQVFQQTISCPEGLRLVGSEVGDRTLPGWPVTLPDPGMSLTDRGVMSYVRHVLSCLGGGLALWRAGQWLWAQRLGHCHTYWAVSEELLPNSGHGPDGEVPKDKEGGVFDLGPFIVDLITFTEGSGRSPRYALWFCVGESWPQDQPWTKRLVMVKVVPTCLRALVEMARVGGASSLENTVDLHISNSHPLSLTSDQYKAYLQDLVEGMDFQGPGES
Sequence,fitted relative affinity
TTTGCTCTGTGCATAGGCCTGTGCTAG,-0.255 z-score
CACTTTCTTTACTTCACTCTGTGCTAG,3.37 z-score
GACGGATTGGGACTGGGGACGTGCTAG,-0.394 z-score
CTAGAGATTTTTCTCAACCGGTGCTAG,0.0155 z-score
TTAGATTTCGGGACTGGAGTAGTGCTA,1.18 z-score
TTAGGTATCGACTTTCGGGTAGTGCTA,1.08 z-score
TCATTTATTTTTTTTATACTGTGCTAG,1.63 z-score
GACGATCTCAGCTTCGAGACGTGCTAG,0.358 z-score
TTAGAACTGAGACTGGAGTAGTGCTAG,-0.557 z-score
CCAGTTTTGTGTGTGTGTTTGTGCTAG,0.299 z-score
GACGGACTGGGACGGGGGACGTGCTAG,-0.334 z-score
TCAAGTTTGTAAATCTTACTGTGCTAG,-0.284 z-score
ATCATTTTCTCTGTTCTAGAGTGCTAG,2.13 z-score

# Some of these lines once more (block 4):
Sequence,E-score
TGCCGCCA,0.242
CTTGTACA,-0.0488
TGAGATAA,0.0381
CAGTGTAC,0.00404
AAAAATTG,-0.109
